Measurements from different studies.
Lines come from different studies, so protocols differ. ± gives the spread as reported.

Compound | system | setting | Cmax
CO[C@H]1C[C@@H]2CC[C@@H](C)[C@@](O)(O2)C(=O)C(=O)N2CCCC[C@H]2C(=O)O[C@H]([C@H](C)C[C@@H]2CC[C@@H](O)[C@H](OC)C2)CC(=O)[C@H](C)/C=C(\C)[C@@H](O)[C@@H](OC)C(=O)[C@H](C)C[C@H](C)/C=C/C=C/C=C/1C | human, whole blood | oral, 35 mg, with: grapefruit juice | 130 ng/mL
CC1=C2C[C@H]3[C@@H](CC[C@@H]4C[C@H](NS(C)(=O)=O)CC[C@@]43C)[C@@H]2CC[C@@]2(C1)O[C@@H]1C[C@H](C)CN[C@H]1[C@H]2C | patients, plasma | oral, 210 mg single, day -7, cycle 1 | 117 ng/mL
CC(C)NC[C@@H](C(=O)N1CCN(c2ncnc3c2[C@H](C)C[C@H]3O)CC1)c1ccc(Cl)cc1 | human, moderate hepatic impairment (Child-Pugh), plasma | oral, 100 mg single dose, geometric mean | 89.1 ng/mL
Cc1nc2cccc(OCC(C)(C)C(=O)NC(C)C)c2c(N)c1C(=O)O | male Sprague-Dawley rat, plasma | oral gavage, 100 mg/kg, day 7 | 118 ± 15.3 ng/mL
Cn1c(-c2ccc(C(N)=O)cc2F)nnc1C(C)(C)Oc1c(F)cc(Cl)cc1F | elderly non-Japanese subjects, plasma | oral, 20 mg single dose, day 1, median | 233 ng/mL
O=c1[nH]c(=O)c(Cc2cccc(C(F)(F)F)c2)c([C@H]2CC[C@H](c3ccccc3)CC2)[nH]1 | human, fasted, plasma | oral, 100 mg single dose, geometric mean | 69.3 ng/mL
CNCc1ccc(-c2[nH]c3cc(F)cc4c3c2CCNC4=O)cc1 | human, plasma | oral, 300 mg, fasted, mean | 415 ng/mL
O=C(CCCCCCC(=O)Nc1ccccc1)NO | patients, serum | oral, 600 mg, cycle 1, with: flavopiridol | 3.1 µM
CCCC[C@H](NC(C)=O)C(=O)N[C@H]1CCC(=O)NC[C@@H](C(=O)N[C@@H](Cc2c[nH]c3ccccc23)C(N)=O)NC(=O)[C@H](CCCNC(=N)N)NC(=O)[C@@H](Cc2ccccc2)NC(=O)[C@H](Cc2c[nH]cn2)NC1=O | beagle dog, male, plasma | subcutaneous, 1.5 mg/kg daily, day 28 | 98 ng/mL
Cc1cc(Nc2cc3ncccc3c(N[C@@H]3C[C@H]4CC[C@@H](C3)N4CCC#N)n2)n[nH]1 | Sprague-Dawley rat, female, plasma | oral, 30 mg/kg/day, last day of 13 weeks | 3.54 ng/mL

For quick reference, copied from above:
Compound | system | setting | Cmax
CO[C@H]1C[C@@H]2CC[C@@H](C)[C@@](O)(O2)C(=O)C(=O)N2CCCC[C@H]2C(=O)O[C@H]([C@H](C)C[C@@H]2CC[C@@H](O)[C@H](OC)C2)CC(=O)[C@H](C)/C=C(\C)[C@@H](O)[C@@H](OC)C(=O)[C@H](C)C[C@H](C)/C=C/C=C/C=C/1C | human, whole blood | oral, 35 mg, with: grapefruit juice | 130 ng/mL
